Results gathered from unrelated publications.
Numbered parts are unrelated; each lists some results of a single study. Positions count from the first letter of the parent shown.
Sequence of UniProt Q9C5W9 (whole entry, looked up): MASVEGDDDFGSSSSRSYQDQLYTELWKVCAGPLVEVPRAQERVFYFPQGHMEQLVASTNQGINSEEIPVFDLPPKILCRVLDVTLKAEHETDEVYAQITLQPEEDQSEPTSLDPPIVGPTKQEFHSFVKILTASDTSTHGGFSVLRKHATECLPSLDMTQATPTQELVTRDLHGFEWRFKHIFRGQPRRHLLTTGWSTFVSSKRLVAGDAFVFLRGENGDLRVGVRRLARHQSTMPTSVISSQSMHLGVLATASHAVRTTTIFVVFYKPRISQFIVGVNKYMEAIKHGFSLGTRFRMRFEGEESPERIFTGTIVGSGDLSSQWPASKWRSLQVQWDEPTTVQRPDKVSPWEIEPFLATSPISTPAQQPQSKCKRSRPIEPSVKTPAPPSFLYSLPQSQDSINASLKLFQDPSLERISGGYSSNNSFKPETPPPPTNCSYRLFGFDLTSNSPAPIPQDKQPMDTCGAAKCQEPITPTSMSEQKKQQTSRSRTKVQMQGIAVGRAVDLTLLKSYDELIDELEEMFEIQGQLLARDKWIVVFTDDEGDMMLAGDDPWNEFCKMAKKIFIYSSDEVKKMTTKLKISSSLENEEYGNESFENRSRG

Series 1
Target: RNA binding protein fox-1 homolog 2, RRM domain, GST-SBP tag (RBFOX2, Homo sapiens, UniProt O43251-10, residues 100-194)
Technique: RNA Bind-n-Seq
Molecule type: RNA
Sample: in vitro
Concentration: 365 nM
Notes: natural RNA segment, single round, ends assumed
Baseline: no-protein control
Reading: higher = stronger binding
Shared flanks, not repeated: GGGAGUUCUACAGUCCGACGAUC … UGGAAUUCUCGGGUGCCAA
Target sequence (chain): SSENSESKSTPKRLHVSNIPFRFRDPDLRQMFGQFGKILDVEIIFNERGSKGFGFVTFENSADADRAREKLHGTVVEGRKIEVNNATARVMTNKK
Under “RBNS enrichment (R)”, `CCUGCUGGCUCAGUAUCGGCUGGCCAGUCAAGUGAAAGAGGAGGUGGAGCAUUUCCUGAAAGGCUUGAAUGAGCUGGUUCCUGAGAACCUCCUGGCUAUUUUUGAUGAGA` is recorded as 0.803.
For `AAAUGGCAUAUGGAUUAACUAUAAGAAAUGAAAUAAGUAAUUUAUUGUAAGACAACAUCAAGCCAUGGAAACUUGGCAGAAGAUUCAAAGCAGCUUAAACAGCACUUUUA`, “RBNS enrichment (R)” read 0.297.
Under “RBNS enrichment (R)”, `UUUGCUGUCCGCUUUUCUCUGUGACCACAGCAGCCCUGAACAACCAGUAUGUGUCUUCUUCUCCAGAUAGUGAAAAAGGUGUCCAGAUAAACCCACCUAAGUGAAAUGGC` is recorded as 0.73.
`ACAGGACACUGCUCCAACCCAAAUCAAUGUCCUCUCUAGCUGUGCAUCCCAAACCCACCUCUUGUCUCCAGCCAUGCCCAGGAUCAAUUCUAGAAUCAGAGGCUACCCCU` — result for “RBNS enrichment (R)”: 1.09.
Under “RBNS enrichment (R)”, `UCAGAAGAGUAUCUUCAGUAAGAGGAGAGUAACUUUUUUUUUGCUGCUCCCGCUAUAUCCCAGGCCUCACCCUUUUCUGAUCAUUAUCAGAAAGAAUCCCCUGAACUUUU` is recorded as 0.304.
`CCUCCUAUUUCUGGCAUCAGAACUUUGCCAUUUGUCUACAGAAGACGAACCAGAGACAAAAUUACUAAGUAUAAAUUAGUCAAGUUUAUCAGUCUAAAAAACGAAGGGAU` — result for “RBNS enrichment (R)”: 0.406.
`UUCAAGCUAGGAAACGGAGAGAACACAGCUUGUUCAAAAGGGUUGAAUUUGGGCUCAAUCCAUAAUUUUUGACAUUUUCACAAAAAUAUGGUUUGCACUUUUUAAUCUAA`: “RBNS enrichment (R)” 0.607.
Under “RBNS enrichment (R)”, `CCGAAACAAAUAAAAAAUACUGUAAUAAAAGUACUUAUAAACAUACUAAUCCUCUUUCAGGACCCUAAAGUUGCAGGUUAGUAGGUCUUCAAGGACAAAUCUGUAAGUUU` is recorded as 0.623.
`GUCCAGGGAGGAGUCAGCGGGGAGUCAGCAGGUUCUCUCUCCUCCCUGGGAACUGGGGACCAACCCACCCCGGCAGCACAGUGCCUUUUUUUCUCCUGCUCUGAGUCAGG` — result for “RBNS enrichment (R)”: 1.42.
Under “RBNS enrichment (R)”, `AAGAGUUUAGAAGAAACAAAAGGCCUUAGAGUCAUCUCUAUGUAAUUGUAUCCUGGUUUCCCCAUCUCCUUAUCCUGAUUUCUCAUUGCUCUUCUGUCCUGCCUCACUGU` is recorded as 0.367.
For `GACCUGGUCCCUUAGAGCUCCAUAUCCCAGUCCCAGCCCUUCUUUGCAGCUGGGCCUCUCUAUACCCCUGGAUGAACAGCUUGCUCAGGCCCCAGGGUGGCUGCCUCGGC`, “RBNS enrichment (R)” read 1.14.
`CCUCUGUGAGCUGUUCCCUCGCCUGAAUUCAUUGCAUCUUACACCUUGGCAUGCCUUGCUCACAAUACUCAUUAUGCUGUGUGGGAUUUCCUGAUUACUAGAAGCUGACC`: “RBNS enrichment (R)” 28.8.

Series 2
Target: UBE2V1 UBC core domain (UniProt Q13404)
Sequence of UniProt Q13404 (whole entry, looked up): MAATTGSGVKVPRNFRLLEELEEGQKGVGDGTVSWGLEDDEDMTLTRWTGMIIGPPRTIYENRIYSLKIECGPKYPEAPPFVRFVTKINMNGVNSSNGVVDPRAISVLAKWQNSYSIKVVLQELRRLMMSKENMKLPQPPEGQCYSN
Technique: yeast two-hybrid
Sample: yeast
Notes: mostly zero background
Baseline: not given
Reading: higher = stronger interaction
B1: SYTL4 RING domain (UniProt Q96C24); chain RGSQHYSDRTCARCQESLGRLSPKTNTCRGCNHLVCRDCRIQESNGTWRCKVCAKEIELKKAT
B2: RBCK1 RING domain (UniProt Q9BYM8); chain SLVLNTEPAECPVCYSVLAPGEAVVLRECLHTFCRECLQGTIRNSQEAEVSCPFIDNTYSCSGKLLEREIK
B3: MAP3K1 RING domain (UniProt Q13233); chain NSIKDEEEQMCPICLLGMLDEESLTVCEDGCRNKLHHHCMSIWAEECRRNREPLICPLCRSKWRSHDFYS
B4: RFWD3 RING domain (UniProt Q6PCD5); chain ASMDEEEGDTCTICLEQWTNAGDHRLSALRCGHLFGYRCISTWLKGQVRKCPQCNKKARHSDIVV
B5: RNF133 RING domain (UniProt Q8WVZ7); chain DEEINPNGDSCVICFERYKPNDIVRILTCKHFFHKNCIDPWILPHGTCPICKCDILKVLGIQ
B6: TRIM62 RING domain (UniProt Q9BVG3); chain MACSLKDELLCSICLSIYQDPVSLGCEHYFCRRCITEHWVRQEAQGARDCPECRRTFAEPALAP
`B1 (SYTL4 RING domain)`: “lacZ reporter activity” 0.
`AVPSGLEENLCKICMDSPIDCVLLECGHMVTCTKCGKRMNECPICRQYVIRAVHVF (RFFL RING domain (UniProt Q8WZ73))` — result for “lacZ reporter activity”: 0.
`KLRKLKEAMLCMVCCEEEINSTFCPCGHTVCCESCAAQLQSCPVCRSRVEHVQHVY (MYLIP RING domain (UniProt Q8WY64))` — result for “lacZ reporter activity”: 0.
`GSDDEEIPFKCFICRQSFQNPVVTKCRHYFCESCALQHFRTTPRCYVCDQQTNGVFNPA (RNF113A RING domain (UniProt O15541))` — result for “lacZ reporter activity”: 0.
`B2 (RBCK1 RING domain)`: “lacZ reporter activity” 0.
For `YQNEVDDDLVCHICLQPLLQPLDTPCGHTFCYKCLRNFLQEKDFCPLDRKRLHFKLCKK (LNX2 RING domain (UniProt Q8N448))`, “lacZ reporter activity” read 0.
`AMYLQENGIDCPKCKFSYALARGGCMHFHCTQCRHQFCSGCYNAFYAKNKC (RNF31 RING domain (UniProt Q96EP0))` — result for “lacZ reporter activity”: 0.
For `B3 (MAP3K1 RING domain)`, “lacZ reporter activity” read 0.
For `B4 (RFWD3 RING domain)`, “lacZ reporter activity” read 0.
Under “lacZ reporter activity”, `B5 (RNF133 RING domain)` is recorded as 0.
`PEDRESLKSACVVCLSSFKSCVFLECGHVCSCTECYRALPEPKKCPICRQAITRVIPLY (MUL1 RING domain (UniProt Q969V5))`: “lacZ reporter activity” 0.
`B6 (TRIM62 RING domain)` — result for “lacZ reporter activity”: 0.

Series 3
Target: Myc proto-oncogene protein, bHLH-zipper, MAX partner unstated (MYC, Homo sapiens, UniProt P01106, residues 368-449)
Sequence of UniProt P01106 (368-449, looked up): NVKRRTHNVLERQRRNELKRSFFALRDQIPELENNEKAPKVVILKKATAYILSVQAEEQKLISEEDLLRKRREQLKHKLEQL
Technique: protein-binding microarray
Molecule type: double-stranded DNA, one strand shown
Sample: in vitro
Concentration: not given
Notes: k-mer, scored over probes, only values ≥0.25
Reading: higher = stronger binding
`ACGCTGTC` has an E-score of 0.302.
For `CACGCCAC`, the E-score was 0.402.
For `ATCACACG`, the E-score was 0.37.
With `ACGTGCAA` the E-score was 0.406.
For `ACTCATGC`, the E-score was 0.303.
The E-score of `CACGGTGC` is reported as 0.334.
`AAACGCAT` gave an E-score of 0.298.
`CAGTCACG` has an E-score of 0.345.
`CCACCCGC` has an E-score of 0.289.
With `CACCTGCC` the E-score was 0.29.
`AGGTGGCG` has an E-score of 0.352.
For `ATGAGGAC`, the E-score was 0.263.
With `ATGGCCTC` the E-score was 0.251.
`ACGTGCTG` has an E-score of 0.392.
The E-score of `CATGCAGG` is reported as 0.391.
For `GCGTGTCC`, the E-score was 0.414.
`GCGGGGCA` gave an E-score of 0.259.
`AGCATGAC` gave an E-score of 0.322.
The E-score of `CACGCTTA` is reported as 0.344.
`CTGCACGC` has an E-score of 0.388.
With `CACCTGCA` the E-score was 0.257.
With `ATAGCACG` the E-score was 0.373.
`GGTGTCAC` has an E-score of 0.268.
The E-score of `GCGTGTGA` is reported as 0.363.
For `GTGCATGA`, the E-score was 0.353.

Series 4
Target: ABI1, truncated, D143A, DHFR fusion (Arabidopsis thaliana, UniProt P49597)
Technique: DHFR PCA, dose-response
Sample: yeast
Notes: Hill fit, mean, not affinity
Together with: (+)-ABA, dose series
Reading: lower = more sensitive
Starting sequence: PYL1, truncated, DHFR fusion (Arabidopsis thaliana, UniProt Q8VZS8); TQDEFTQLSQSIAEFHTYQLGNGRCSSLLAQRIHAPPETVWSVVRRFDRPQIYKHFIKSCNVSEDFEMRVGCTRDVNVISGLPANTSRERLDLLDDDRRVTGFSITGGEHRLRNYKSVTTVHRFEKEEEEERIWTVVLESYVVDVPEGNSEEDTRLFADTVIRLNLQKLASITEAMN
With `E151M` the ABA EC50 was 5.87 µM.
The ABA EC50 of `P37T` is reported as 15.6 µM.
For `P36W`, the ABA EC50 was 36.6 µM.
The ABA EC50 of `G108T` is reported as 190 µM.
`I57C` gave an ABA EC50 of 56.4 µM.
`C72G` gave an ABA EC50 of 12.7 µM.
For `L29Y`, the ABA EC50 was 93.8 µM.
`G21T` has an ABA EC50 of 3.03 µM.
The ABA EC50 of `V78A` is reported as 53.5 µM.
For `K126H`, the ABA EC50 was 1.79 µM.
`S59W` has an ABA EC50 of 36.9 µM.
`V145M` has an ABA EC50 of 22 µM.
The ABA EC50 of `S26A` is reported as 3.2 µM.
The ABA EC50 of `E125L` is reported as 2.42 µM.
`V62E` has an ABA EC50 of 237 µM.
The ABA EC50 of `Q10L` is reported as 3.37 µM.
The ABA EC50 of `A30L` is reported as 2.17 µM.
`Q7Y` gave an ABA EC50 of 1.81 µM.
For `K58Q`, the ABA EC50 was 2.69 µM.
With `E129Y` the ABA EC50 was 3.19 µM.
With `I133K` the ABA EC50 was 2.65 µM.
The ABA EC50 of `Y115M` is reported as 172 µM.
`E127C` gave an ABA EC50 of 3.01 µM.
`E131T` has an ABA EC50 of 3.33 µM.
With `I12K` the ABA EC50 was 34.1 µM.

Series 5
Target: CCNB3, cyclin fold, Cln2 fusion (human)
Technique: yeast growth competition, sequencing
Sample: yeast
Notes: strong parent motif
Baseline: not given
Reading: higher = stronger binding
Starting sequence: PPP1R3F docking peptide (human); VAPRRVLFADEAL; partner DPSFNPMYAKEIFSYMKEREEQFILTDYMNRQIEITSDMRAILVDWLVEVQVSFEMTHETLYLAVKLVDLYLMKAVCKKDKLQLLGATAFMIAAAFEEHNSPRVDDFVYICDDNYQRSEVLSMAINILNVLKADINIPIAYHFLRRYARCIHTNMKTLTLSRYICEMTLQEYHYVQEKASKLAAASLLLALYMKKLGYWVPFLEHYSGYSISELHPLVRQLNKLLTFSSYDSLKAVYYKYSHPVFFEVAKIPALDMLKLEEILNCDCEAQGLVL
For `VAPARVLFADEAL [R4A]`, “normalised enrichment score” read 0.887.
`VAPRAVLFADEAL [R5A]` — result for “normalised enrichment score”: 0.506.
Under “normalised enrichment score”, `VAPRKVLLADEAL [R5K F8L]` is recorded as 0.0968.
For `VAPRRVLFADAAL [E11A]`, “normalised enrichment score” read 0.993.
For `VAPRRALFADEAL [V6A]`, “normalised enrichment score” read 0.436.
`VAPRRVAFADEAL [L7A]` — result for “normalised enrichment score”: 0.334.
`VAPRAVAFADEAL [R5A L7A]`: “normalised enrichment score” -0.0202.
`VAPRRVLLADEAL [F8L]` — result for “normalised enrichment score”: 0.432.

Further values, each from its own experiment
B7: ARF17 (Arabidopsis thaliana, UniProt Q84WU6); chain MSPPSATAGDINHREVDPTIWRACAGASVQIPVLHSRVYYFPQGHVEHCCPLLSTLPSSTSPVPCIITSIQLLADPVTDEVFAHLILQPMTQQQFTPTNYSRFGRFDGDVDDNNKVTTFAKILTPSDANNGGGFSVPRFCADSVFPLLNFQIDPPVQKLYVTDIHGAVWDFRHIYRGTPRRHLLTTGWSKFVNSKKLIAGDSVVFMRKSADEMFIGVRRTPISSSDGGSSYYGGDEYNGYYSQSSVAKEDDGSPKKTFRRSGNGKLTAEAVTDAINRASQGLPFEVVFYPAAGWSEFVVRAEDVESSMSMYWTPGTRVKMAMETEDSSRITWFQGIVSSTYQETGPWRGSPWKQLQITWDEPEILQNVKRVNPWQVEIAAHATQLHTPFPPAKRLKYPQPGGGFLSGDDGEILYPQSGLSSAAAPDPSPSMFSYSTFPAGMQGARQYDFGSFNPTGFIGGNPPQLFTNNFLSPLPDLGKVSTEMMNFGSPPSDNLSPNSNTTNLSSGNDLVGNRGPLSKKVNSIQLFGKIITVEEHSESGPAESGLCEEDGSKESSDNETQLSLSHAPPSVPKHSNSNAGSSSQG
`B7 (ARF17)` gave a positive tests of 0 (ARF18 482-602 (Arabidopsis thaliana, UniProt Q9C5W9); two-hybrid; weak activation fusion; baseline: out of 4 tests, higher = firmer interaction).

For quick reference, copied from above (series 4):
`V145M` has an ABA EC50 of 22 µM.
With `I12K` the ABA EC50 was 34.1 µM.
The ABA EC50 of `V78A` is reported as 53.5 µM.
For `P36W`, the ABA EC50 was 36.6 µM.
For `K126H`, the ABA EC50 was 1.79 µM.
